Measured values collected from several papers.
Every numbered part comes from another study and shows a few of its results, in no order. “And” joins repeats or separate records; there may be more than shown. Positions count from the first letter of the parent shown.

Study 1 — target: CRIPT, C-terminal peptide; technique: DHFR complementation, deep sequencing; matrix: yeast; baseline: wild type; reading: higher = weaker binding
Setting: single substitutions, model-inferred values
Parent: ERBIN, PDZ domain 1 (human); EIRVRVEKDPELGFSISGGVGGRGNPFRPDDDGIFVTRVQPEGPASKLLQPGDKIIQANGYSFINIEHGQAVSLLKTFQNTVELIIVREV; partner TKNYKQTSV
Under “binding free energy change”, `S46D` is recorded as 0.0393 kcal/mol.
`G18C`: “binding free energy change” 1.33 kcal/mol.
`N65A`: “binding free energy change” 0.026 kcal/mol.
`N65Y` — result for “binding free energy change”: 0.102 kcal/mol.
`G60H` — result for “binding free energy change”: 0.188 kcal/mol.
For `Q57K`, “binding free energy change” read -0.058 kcal/mol.
For `F63H`, “binding free energy change” read 0.841 kcal/mol.
`I66Y` — result for “binding free energy change”: -0.0975 kcal/mol.
`V72A`: “binding free energy change” -0.15 kcal/mol.
`T77M` — result for “binding free energy change”: 0.037 kcal/mol.
Under “binding free energy change”, `G52K` is recorded as 0.307 kcal/mol.
For `N59G`, “binding free energy change” read 0.142 kcal/mol.
`A58E`: “binding free energy change” 0.488 kcal/mol.
Under “binding free energy change”, `I55M` is recorded as 0.176 kcal/mol.

Study 2 — technique: competition protein-binding microarray; molecule type: double-stranded DNA, one strand shown; matrix: in vitro; concentration: 2 µM; with: Pho4 competitor, 0.05 µM; reading: higher = stronger binding
Target: Centromere-binding protein 1, full length, His-tagged (CBF1, Saccharomyces cerevisiae, UniProt P17106, residues 1-351)
Chain of UniProt P17106 (whole entry, looked up): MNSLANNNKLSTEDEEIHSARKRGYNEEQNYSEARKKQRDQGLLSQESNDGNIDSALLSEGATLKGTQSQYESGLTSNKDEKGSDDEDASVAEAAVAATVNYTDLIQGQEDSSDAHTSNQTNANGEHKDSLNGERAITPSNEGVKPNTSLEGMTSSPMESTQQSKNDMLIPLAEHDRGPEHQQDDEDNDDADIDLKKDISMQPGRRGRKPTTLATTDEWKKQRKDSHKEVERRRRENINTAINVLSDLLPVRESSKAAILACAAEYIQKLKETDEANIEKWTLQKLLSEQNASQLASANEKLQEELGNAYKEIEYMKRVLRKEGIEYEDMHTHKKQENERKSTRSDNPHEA
Setting: whole 60-bp probe, lowest competitor level
For `AGGGCCGGTTGCCGTCACGTGCGGAAAACTATCTCCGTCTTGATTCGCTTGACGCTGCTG`, the fluorescence intensity was 3710 a.u.
For `GACGACCGTACTTTGCACGTGGCCGCAGACACATTTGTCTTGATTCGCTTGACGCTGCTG`, the fluorescence intensity was 1370 a.u.
The fluorescence intensity of `CGTTTCATTCAAGAGGGCGTGCATCCGCGGATCATCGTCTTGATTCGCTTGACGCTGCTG` is reported as 86.9 a.u.
`CTAACGAAGGTTTGCCTAGTGGGTGACAAGCCAAGTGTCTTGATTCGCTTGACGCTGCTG` gave a fluorescence intensity of 75.5 a.u.
For `AAGTACTATCATGGGCGCATGCCAGGTACCTAAGCCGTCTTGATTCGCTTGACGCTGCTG`, the fluorescence intensity was 57.5 a.u.
The fluorescence intensity of `TTAAAAATAGACTATTCGACAACTTTCCTACTGCTAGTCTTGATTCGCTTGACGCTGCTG` is reported as 77.8 a.u.
With `TGCCTTTTTCATTGTCATGTGGGTTTTGGAGAGCTTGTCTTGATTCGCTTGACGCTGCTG` the fluorescence intensity was 217 a.u.
For `AAAGCGGTAATTTTTCACGTGTGATCAAATATCTATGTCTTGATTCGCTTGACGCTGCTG`, the fluorescence intensity was 1200 a.u.
The fluorescence intensity of `AATTCCACACCGCACCATGTGCCCATCAAGTCCAACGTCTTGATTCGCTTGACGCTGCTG` is reported as 128 a.u.
With `CGGGGTTAAGTTTGCACTGTGGGTGGCTTGCAGCAGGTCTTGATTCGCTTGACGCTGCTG` the fluorescence intensity was 75.6 a.u.
With `TGGCATGAGTGGCAGCATGTGCCTCATATCCATTGGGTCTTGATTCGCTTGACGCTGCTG` the fluorescence intensity was 101 a.u.
For `CTAACGAAGGTTTTTCACGTGTAATACAAGCCAAGTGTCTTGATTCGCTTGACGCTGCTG`, the fluorescence intensity was 742 a.u.
`CATACCCAACCTTGTCACGCGACTTAAGATATTTGTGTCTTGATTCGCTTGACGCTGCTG` has a fluorescence intensity of 781 a.u.
The fluorescence intensity of `AGAGTCATCGGCTTCACCGTGAGGTTTTTTCAAGTGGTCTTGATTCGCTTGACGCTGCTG` is reported as 69.9 a.u.

Study 3 — target: CCNE2, cyclin fold, Cln2 fusion (human); technique: yeast growth competition, sequencing; matrix: yeast; setting: strong parent motif; baseline: not given; reading: higher = stronger binding
Parent: E2F1 docking peptide (human); PPVKRRLDLETDH
Under “normalised enrichment score”, `PPVKRRLDLPTDH [E10P]` is recorded as 0.688.
`PPVKCRLDLETDH [R5C]` — result for “normalised enrichment score”: 0.159.
Under “normalised enrichment score”, `PPVKRRIDLETDH [L7I]` is recorded as 0.906.
Under “normalised enrichment score”, `PPVKRRLDLETYH [D12Y]` is recorded as 3.14.
`PPVKRRLLLETDH [D8L]`: “normalised enrichment score” 2.65.
`PPHKRRLDLETDH [V3H]`: “normalised enrichment score” 0.776.
Under “normalised enrichment score”, `PPVKRRLDLETDR [H13R]` is recorded as 1.22.
`PPNKRRLDLETDH [V3N]` — result for “normalised enrichment score”: 0.595.
For `PKVKRRLDLETDH [P2K]`, “normalised enrichment score” read 1.08.
`PPVKRRLDLETEH [D12E]` — result for “normalised enrichment score”: 1.24.
For `APVKRRLDLETDH [P1A]`, “normalised enrichment score” read 1.82.
For `RPVKRRLDLETDH [P1R]`, “normalised enrichment score” read 0.942.
For `PPVKRGLDLETDH [R6G]`, “normalised enrichment score” read 0.185.
`PPVSRRLDLETDH [K4S]`: “normalised enrichment score” 0.412.
For `PPVKRRLDLETLH [D12L]`, “normalised enrichment score” read 1.99.
For `PPVKRRDDLETDH [L7D]`, “normalised enrichment score” read 0.645.
`PHVKRRLDLETDH [P2H]` — result for “normalised enrichment score”: 1.48.
`PVVKRRLDLETDH [P2V]` — result for “normalised enrichment score”: 0.256.

Study 4 — technique: universal PBM; molecule type: double-stranded DNA, one strand shown; matrix: in vitro; concentration: not given; reading: higher = stronger binding
Target: Sal-like protein 4, full length isoform B (SALL4, Homo sapiens, UniProt Q9UJQ4-2, residues 1-616)
Setting: 8-mer, flanks averaged, mean of replicates
For `CCGCAAAG`, the E-score was -0.145.
With `GATTTCAA` the E-score was 0.128.
For `CCCACACC`, the E-score was -0.0764.
For `CCTGAATA`, the E-score was -0.0478.
The E-score of `GCCTCCAC` is reported as -0.229.
With `ATGGCCAC` the E-score was -0.212.
The E-score of `CCGGATCG` is reported as -0.356.
`AAGAGCTT` has an E-score of -0.158.
For `GTGTCGAA`, the E-score was -0.0693.
`CACGTTCG` has an E-score of -0.0779.
For `CTTATCAA`, the E-score was 0.266.
`GATTGAGC` has an E-score of 0.0226.
With `ATTCTAGA` the E-score was 0.179.
For `ACCATCAT`, the E-score was 0.21.
`CGGAAATA` has an E-score of 0.231.
`CTACGTCA` gave an E-score of -0.144.
The E-score of `AAAGGTGG` is reported as -0.0131.
`AGGGCAGG` gave an E-score of -0.247.
`ACTTTAAG` gave an E-score of 0.176.
`AGTGGTTG` gave an E-score of -0.0169.
For `AGTACACT`, the E-score was 0.0503.
With `ATCCACAG` the E-score was 0.0309.
For `AATAAGGT`, the E-score was 0.169.
`AGAATGGA` gave an E-score of 0.0835.
`AGACCAAT` has an E-score of 0.0899.

Study 5 — technique: DHFR PCA, deep sequencing; matrix: yeast; with: (+)-ABA 0.0091 µM; baseline: wild-type fitted maximum; reading: higher = stronger binding
Target: ABI1, truncated, D143A, DHFR fusion (Arabidopsis thaliana)
Setting: methotrexate growth selection, single substitutions
Parent: PYL1, truncated, DHFR fusion (Arabidopsis thaliana); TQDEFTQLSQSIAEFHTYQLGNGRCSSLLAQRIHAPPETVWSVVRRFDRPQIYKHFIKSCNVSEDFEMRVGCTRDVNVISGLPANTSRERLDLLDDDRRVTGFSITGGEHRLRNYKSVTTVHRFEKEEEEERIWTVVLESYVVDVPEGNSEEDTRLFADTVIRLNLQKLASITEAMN
For `T135F`, “relative binding score” read -3.05%.
Under “relative binding score”, `D92M` is recorded as -2.28%.
Under “relative binding score”, `E38T` is recorded as 1.98%.
For `A13D`, “relative binding score” read 27.2%.
For `S11F`, “relative binding score” read 14.8%.
Under “relative binding score”, `V145I` is recorded as 45%.
For `M68Y`, “relative binding score” read -6.83%.
`P50T`: “relative binding score” 23.3%.
`E129H`: “relative binding score” 17.4%.
`M176Q` — result for “relative binding score”: 17.2%.
`L82G` — result for “relative binding score”: 47.5%.
`F56A`: “relative binding score” 1.67%.
`Q31Y` — result for “relative binding score”: -5.13%.
`R88W`: “relative binding score” -0.141%.
`E109A` — result for “relative binding score”: 5.21%.

Study 6 — target: CREBL2, bZIP domain (human); technique: DHFR protein complementation; matrix: yeast; baseline: wild-type JUN-FOS pair; reading: higher = stronger binding
Setting: single substitutions, most at no-binding floor
Parent: JUN, bZIP domain (human); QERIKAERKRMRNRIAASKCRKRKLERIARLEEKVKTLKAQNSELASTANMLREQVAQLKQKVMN; partner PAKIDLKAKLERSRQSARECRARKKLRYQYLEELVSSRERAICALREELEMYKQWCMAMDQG
For `N42T`, the binding fitness was -1.56 natural log.
The binding fitness of `A29K` is reported as -1.28 natural log.
The binding fitness of `S47N` is reported as -1.4 natural log.
`R30H` gave a binding fitness of -1.55 natural log.
The binding fitness of `A46N` is reported as -1.54 natural log.
The binding fitness of `A40V` is reported as -1.49 natural log.
The binding fitness of `S43A` is reported as -1.42 natural log.
The binding fitness of `E33D` is reported as -1.55 natural log.
`L45C` gave a binding fitness of -1.37 natural log.
For `L52T`, the binding fitness was -1.58 natural log.
For `E33P`, the binding fitness was -1.54 natural log.
For `K34S`, the binding fitness was -1.52 natural log.
The binding fitness of `N42Q` is reported as -1.46 natural log.
With `V35S` the binding fitness was -1.53 natural log.
With `K39R` the binding fitness was -1.37 natural log.
The binding fitness of `R30W` is reported as -1.42 natural log.
For `L45M`, the binding fitness was -1.36 natural log.
`L38P` gave a binding fitness of -1.57 natural log.
The binding fitness of `E32F` is reported as -1.49 natural log.
With `L38R` the binding fitness was -1.51 natural log.
The binding fitness of `R53C` is reported as -1.44 natural log.
With `E44S` the binding fitness was -1.53 natural log.
With `E44A` the binding fitness was -1.52 natural log.
`V35Q` gave a binding fitness of -1.55 natural log.
With `A46S` the binding fitness was -1.46 natural log.

Single results of other studies
The fold induction of `PhoQ, residues 284 288 289 292 302 303 TYGVAM` is reported as 5.48 and 14.2 (PhoP, residues 12 14 15 18 19 LWHCS (Escherichia coli, UniProt P23836); Sort-seq, item: YFP reporter; E. coli; PhoQ-PhoP variant library, with: 10 µM Mg2+; baseline: high Mg2+ state, higher = stronger signaling).

For quick reference, copied from above (study 5):
`R88W`: “relative binding score” -0.141%.
Under “relative binding score”, `E38T` is recorded as 1.98%.
Under “relative binding score”, `V145I` is recorded as 45%.
`E109A` — result for “relative binding score”: 5.21%.
For `M68Y`, “relative binding score” read -6.83%.
`M176Q` — result for “relative binding score”: 17.2%.
`L82G` — result for “relative binding score”: 47.5%.
For `A13D`, “relative binding score” read 27.2%.
`E129H`: “relative binding score” 17.4%.
For `S11F`, “relative binding score” read 14.8%.
For `T135F`, “relative binding score” read -3.05%.
`Q31Y` — result for “relative binding score”: -5.13%.
Under “relative binding score”, `D92M` is recorded as -2.28%.
`F56A`: “relative binding score” 1.67%.
`P50T`: “relative binding score” 23.3%.
